Literature values, collected from citations in different studies.
Each line is one published result; not all experiments were run side by side.
UniProt P07333, sequence (whole entry, looked up): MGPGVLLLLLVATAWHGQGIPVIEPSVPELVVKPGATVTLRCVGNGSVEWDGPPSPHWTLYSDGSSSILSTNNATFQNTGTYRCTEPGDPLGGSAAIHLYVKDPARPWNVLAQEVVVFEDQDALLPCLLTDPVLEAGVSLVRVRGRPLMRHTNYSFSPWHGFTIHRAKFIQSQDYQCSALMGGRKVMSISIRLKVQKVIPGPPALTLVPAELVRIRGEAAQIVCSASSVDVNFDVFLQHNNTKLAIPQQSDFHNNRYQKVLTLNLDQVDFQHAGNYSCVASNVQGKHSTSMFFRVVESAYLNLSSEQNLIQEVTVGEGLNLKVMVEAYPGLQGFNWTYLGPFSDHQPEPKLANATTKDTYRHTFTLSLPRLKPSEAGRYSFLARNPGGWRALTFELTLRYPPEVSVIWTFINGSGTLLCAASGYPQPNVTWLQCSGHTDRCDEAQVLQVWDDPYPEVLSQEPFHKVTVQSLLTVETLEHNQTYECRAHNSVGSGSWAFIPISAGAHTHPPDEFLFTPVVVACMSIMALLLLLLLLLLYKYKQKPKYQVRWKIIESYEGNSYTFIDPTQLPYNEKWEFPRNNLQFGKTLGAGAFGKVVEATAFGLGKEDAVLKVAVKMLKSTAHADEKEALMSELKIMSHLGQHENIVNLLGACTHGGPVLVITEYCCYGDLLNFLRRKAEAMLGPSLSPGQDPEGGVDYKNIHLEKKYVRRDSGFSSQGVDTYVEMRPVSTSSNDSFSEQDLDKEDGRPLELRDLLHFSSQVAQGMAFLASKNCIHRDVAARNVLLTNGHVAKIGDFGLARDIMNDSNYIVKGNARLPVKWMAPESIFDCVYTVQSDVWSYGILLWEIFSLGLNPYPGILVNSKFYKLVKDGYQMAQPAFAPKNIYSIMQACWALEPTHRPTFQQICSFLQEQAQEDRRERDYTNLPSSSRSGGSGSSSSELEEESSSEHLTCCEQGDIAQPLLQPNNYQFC
UniProt P23458, sequence (whole entry, looked up): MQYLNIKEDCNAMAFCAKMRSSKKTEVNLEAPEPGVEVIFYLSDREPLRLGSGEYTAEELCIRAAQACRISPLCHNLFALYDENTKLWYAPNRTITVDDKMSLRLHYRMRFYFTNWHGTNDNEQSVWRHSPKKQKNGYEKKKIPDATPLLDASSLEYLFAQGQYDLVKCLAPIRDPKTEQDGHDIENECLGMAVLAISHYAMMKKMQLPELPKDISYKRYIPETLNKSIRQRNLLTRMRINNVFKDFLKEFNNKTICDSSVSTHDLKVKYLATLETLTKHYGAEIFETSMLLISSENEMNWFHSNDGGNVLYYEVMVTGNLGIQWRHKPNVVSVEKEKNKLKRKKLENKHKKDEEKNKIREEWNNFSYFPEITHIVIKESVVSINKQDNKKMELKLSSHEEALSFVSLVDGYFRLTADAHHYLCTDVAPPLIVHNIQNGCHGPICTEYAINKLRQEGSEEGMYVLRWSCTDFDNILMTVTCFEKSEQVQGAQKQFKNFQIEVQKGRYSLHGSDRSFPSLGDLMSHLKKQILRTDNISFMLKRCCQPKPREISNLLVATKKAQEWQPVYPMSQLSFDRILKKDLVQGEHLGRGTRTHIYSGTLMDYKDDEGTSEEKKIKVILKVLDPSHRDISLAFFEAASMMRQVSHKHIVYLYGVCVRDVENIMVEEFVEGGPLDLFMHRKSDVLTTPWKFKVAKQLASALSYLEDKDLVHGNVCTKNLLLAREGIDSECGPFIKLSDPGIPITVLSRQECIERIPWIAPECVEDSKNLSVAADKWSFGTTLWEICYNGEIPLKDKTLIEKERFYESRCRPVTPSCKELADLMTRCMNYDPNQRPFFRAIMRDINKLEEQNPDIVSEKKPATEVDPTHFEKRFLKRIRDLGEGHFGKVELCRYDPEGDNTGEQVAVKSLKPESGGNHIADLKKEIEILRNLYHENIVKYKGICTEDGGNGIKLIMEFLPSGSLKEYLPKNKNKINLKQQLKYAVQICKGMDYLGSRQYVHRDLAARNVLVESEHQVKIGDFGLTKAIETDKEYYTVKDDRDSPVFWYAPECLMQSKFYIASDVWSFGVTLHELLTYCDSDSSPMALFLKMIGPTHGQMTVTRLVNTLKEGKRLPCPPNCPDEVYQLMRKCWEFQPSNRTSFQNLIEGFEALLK
UniProt O75747, sequence (whole entry, looked up): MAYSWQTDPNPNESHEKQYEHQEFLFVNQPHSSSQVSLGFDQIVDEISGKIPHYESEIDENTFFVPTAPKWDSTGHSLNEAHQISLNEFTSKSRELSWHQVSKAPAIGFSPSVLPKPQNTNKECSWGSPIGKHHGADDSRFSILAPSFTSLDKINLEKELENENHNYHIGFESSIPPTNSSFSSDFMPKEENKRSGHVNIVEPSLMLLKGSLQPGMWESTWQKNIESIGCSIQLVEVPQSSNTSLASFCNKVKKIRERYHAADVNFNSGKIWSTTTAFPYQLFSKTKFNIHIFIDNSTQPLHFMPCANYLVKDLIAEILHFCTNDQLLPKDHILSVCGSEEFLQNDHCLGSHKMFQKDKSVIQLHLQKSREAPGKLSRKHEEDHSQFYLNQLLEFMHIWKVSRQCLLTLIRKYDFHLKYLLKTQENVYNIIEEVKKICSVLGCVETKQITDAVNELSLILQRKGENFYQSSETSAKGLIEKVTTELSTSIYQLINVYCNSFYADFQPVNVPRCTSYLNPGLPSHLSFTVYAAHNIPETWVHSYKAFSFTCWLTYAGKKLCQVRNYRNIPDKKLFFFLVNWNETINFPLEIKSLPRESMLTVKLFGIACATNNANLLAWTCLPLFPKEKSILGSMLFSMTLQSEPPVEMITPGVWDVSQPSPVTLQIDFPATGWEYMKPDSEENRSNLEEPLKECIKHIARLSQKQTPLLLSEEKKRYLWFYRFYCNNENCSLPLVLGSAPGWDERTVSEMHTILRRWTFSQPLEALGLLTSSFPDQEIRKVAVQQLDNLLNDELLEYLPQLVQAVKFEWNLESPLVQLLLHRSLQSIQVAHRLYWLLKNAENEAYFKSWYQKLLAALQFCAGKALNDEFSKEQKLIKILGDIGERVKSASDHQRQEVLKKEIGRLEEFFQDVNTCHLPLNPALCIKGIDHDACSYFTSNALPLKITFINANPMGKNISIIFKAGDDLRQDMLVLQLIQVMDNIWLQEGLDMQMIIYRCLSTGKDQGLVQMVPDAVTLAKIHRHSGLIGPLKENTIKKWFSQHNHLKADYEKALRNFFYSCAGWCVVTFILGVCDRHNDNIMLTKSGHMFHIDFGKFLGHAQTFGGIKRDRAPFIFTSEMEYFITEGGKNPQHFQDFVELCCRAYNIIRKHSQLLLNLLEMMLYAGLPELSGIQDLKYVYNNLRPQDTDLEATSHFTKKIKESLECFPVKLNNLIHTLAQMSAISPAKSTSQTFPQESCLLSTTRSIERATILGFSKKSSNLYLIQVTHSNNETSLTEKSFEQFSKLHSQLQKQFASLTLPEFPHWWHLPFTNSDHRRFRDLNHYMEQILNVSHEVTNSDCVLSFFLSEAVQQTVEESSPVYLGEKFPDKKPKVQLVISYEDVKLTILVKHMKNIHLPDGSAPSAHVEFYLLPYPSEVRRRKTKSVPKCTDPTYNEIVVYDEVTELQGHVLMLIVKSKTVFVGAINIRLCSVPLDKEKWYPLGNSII

Nc1cc(C(F)(F)F)c(-c2nc(N3CCOCC3)nc(N3CCOCC3)n2)cn1  GI50 (A-375): 1150 nM
Cc1c(CN2CCN(C(=O)[C@H](C)O)CC2)sc2c(N3CCOCC3)nc(-c3cnc(N)nc3)nc12  remaining binding (Phosphatidylinositol 3-kinase C2 domain-containing subunit gamma (PIK3C2G, Homo sapiens, UniProt O75747); KinomeScan competition binding; 10 µM): 12%
C[C@H]1COCCN1c1nc(-c2cnc(N)cc2C(F)F)nc(N2CCOCC2)n1  GI50 (DoTc2 4520 cells; cell growth): 420 nM
CCC(C)n1ncn(-c2ccc(N3CCN(c4ccc(OCC5COC(Cn6cncn6)(c6ccc(Cl)cc6Cl)O5)cc4)CC3)cc2)c1=O (centres unmarked)  activity outcome (HepG2; mitochondrial membrane potential; concentration not given, Tox21): inactive
C=CC(=O)N1CCC(C(=O)NCC(=O)N2CCN(c3nc(-c4cnc(N)nc4C(F)F)nc(N4CCOCC4)n3)CC2)CC1  remaining activity (Tyrosine-protein kinase JAK1, JH2 pseudokinase domain (JAK1, Homo sapiens, UniProt P23458); kinase activity; 1 µM): 32%
CC1(C)S[C@@H]2[C@H](NC(=O)[C@H](N)c3ccccc3)C(=O)N2[C@H]1C(=O)O  MIC (Enterobacter cloacae; clinical isolate RKI-No_348/15): > 16 µg/mL
COc1ccccc1Oc1cccc(CN2CCC(NC(=O)C(CCN3CCCC3)c3ccccc3)CC2)c1 (centres unmarked)  EC50 (human CCR8 Y114A mutant (TM3); IP accumulation, agonist): 579 nM
Cc1c(C#N)cccc1[C@@H](C)Nc1nnc(C)c2cnc(N3CCOCC3)cc12  IC50 (MKN-74; 3D cell viability; 14 d): > 1000 nM
O=C(Nc1nc2ccccc2[nH]1)c1ccccc1  activity (luciferase; PubChem AID 773): 0.2 µM
FC(F)(F)c1ccc(Nc2cnnc3cc(-c4ncccc4C(F)(F)F)ccc23)cc1  IC50 (TRPV1; calcium flux, antagonist; HEK293; together with: capsaicin): 29 nM
COc1ccccc1Oc1cccc(CN2CCC(NC(=O)C3CC(=O)Nc4ccccc43)CC2)c1 (centres unmarked)  EC50 (human CCR8 L258A mutant (TM6); IP accumulation, agonist): 39 nM
CC(C)c1cc(C(F)(F)F)ccc1CNC(=O)Nc1cccc2[nH]ncc12  IC50 (TRPV1; calcium flux, antagonist; HEK293; together with: capsaicin): 9 nM
COc1ccccc1Oc1cccc(CN2CCC3(CC2)C(=O)NCN3CCc2ccccc2)c1  EC50 (human CCR8 Q91W mutant (TM2); IP accumulation, agonist): 108 nM
O=C(NCc1cccc(C(F)(F)F)c1)Nc1cccc2ccc(O)cc12  IC50 (TRPV1; calcium flux, antagonist; HEK293; together with: capsaicin): 26 nM
CNC(C)C1CCC(N)C(OC2C(N)CC(N)C(OC3OCC(C)(O)C(NC)C3O)C2O)O1 (centres unmarked)  MIC (Escherichia coli; clinical isolate RKI-No_524/16): ≤ 0.5 µg/mL
FC(F)(F)c1ccc(Nc2nc(N3CCCC3)nc3sc(Nc4c(Cl)cccc4Cl)nc23)cc1  IC50 (TRPV1; calcium flux, antagonist; HEK293; together with: capsaicin): 12 nM
Cc1cc(NC(=O)c2cccc(NC(=O)/C=C/CN(C)C)c2)ccc1Nc1nccc(-c2cccnc2)n1  remaining activity (Macrophage colony-stimulating factor 1 receptor (CSF1R, Homo sapiens, UniProt P07333); enzyme activity, inhibitor; 1 µM; relative to: vehicle): 9%

Some of these lines once more:
O=C(Nc1nc2ccccc2[nH]1)c1ccccc1  activity (luciferase; PubChem AID 773): 0.2 µM
FC(F)(F)c1ccc(Nc2cnnc3cc(-c4ncccc4C(F)(F)F)ccc23)cc1  IC50 (TRPV1; calcium flux, antagonist; HEK293; together with: capsaicin): 29 nM
COc1ccccc1Oc1cccc(CN2CCC(NC(=O)C3CC(=O)Nc4ccccc43)CC2)c1 (centres unmarked)  EC50 (human CCR8 L258A mutant (TM6); IP accumulation, agonist): 39 nM
